Published values pooled from the literature.
A part holds a random share of what one study measured.
UniProt P15735, sequence (whole entry, looked up): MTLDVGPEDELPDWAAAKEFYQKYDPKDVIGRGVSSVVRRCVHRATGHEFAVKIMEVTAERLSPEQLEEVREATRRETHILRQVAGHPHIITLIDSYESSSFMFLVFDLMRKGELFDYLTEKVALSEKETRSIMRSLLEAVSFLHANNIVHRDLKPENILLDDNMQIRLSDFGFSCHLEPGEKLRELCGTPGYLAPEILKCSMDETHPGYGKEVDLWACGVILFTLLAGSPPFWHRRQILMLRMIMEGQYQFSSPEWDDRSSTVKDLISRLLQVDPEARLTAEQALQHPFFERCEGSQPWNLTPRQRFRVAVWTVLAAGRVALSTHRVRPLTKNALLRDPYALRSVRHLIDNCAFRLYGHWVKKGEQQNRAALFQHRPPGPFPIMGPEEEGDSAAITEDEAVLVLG
UniProt Q04912, sequence (whole entry, looked up): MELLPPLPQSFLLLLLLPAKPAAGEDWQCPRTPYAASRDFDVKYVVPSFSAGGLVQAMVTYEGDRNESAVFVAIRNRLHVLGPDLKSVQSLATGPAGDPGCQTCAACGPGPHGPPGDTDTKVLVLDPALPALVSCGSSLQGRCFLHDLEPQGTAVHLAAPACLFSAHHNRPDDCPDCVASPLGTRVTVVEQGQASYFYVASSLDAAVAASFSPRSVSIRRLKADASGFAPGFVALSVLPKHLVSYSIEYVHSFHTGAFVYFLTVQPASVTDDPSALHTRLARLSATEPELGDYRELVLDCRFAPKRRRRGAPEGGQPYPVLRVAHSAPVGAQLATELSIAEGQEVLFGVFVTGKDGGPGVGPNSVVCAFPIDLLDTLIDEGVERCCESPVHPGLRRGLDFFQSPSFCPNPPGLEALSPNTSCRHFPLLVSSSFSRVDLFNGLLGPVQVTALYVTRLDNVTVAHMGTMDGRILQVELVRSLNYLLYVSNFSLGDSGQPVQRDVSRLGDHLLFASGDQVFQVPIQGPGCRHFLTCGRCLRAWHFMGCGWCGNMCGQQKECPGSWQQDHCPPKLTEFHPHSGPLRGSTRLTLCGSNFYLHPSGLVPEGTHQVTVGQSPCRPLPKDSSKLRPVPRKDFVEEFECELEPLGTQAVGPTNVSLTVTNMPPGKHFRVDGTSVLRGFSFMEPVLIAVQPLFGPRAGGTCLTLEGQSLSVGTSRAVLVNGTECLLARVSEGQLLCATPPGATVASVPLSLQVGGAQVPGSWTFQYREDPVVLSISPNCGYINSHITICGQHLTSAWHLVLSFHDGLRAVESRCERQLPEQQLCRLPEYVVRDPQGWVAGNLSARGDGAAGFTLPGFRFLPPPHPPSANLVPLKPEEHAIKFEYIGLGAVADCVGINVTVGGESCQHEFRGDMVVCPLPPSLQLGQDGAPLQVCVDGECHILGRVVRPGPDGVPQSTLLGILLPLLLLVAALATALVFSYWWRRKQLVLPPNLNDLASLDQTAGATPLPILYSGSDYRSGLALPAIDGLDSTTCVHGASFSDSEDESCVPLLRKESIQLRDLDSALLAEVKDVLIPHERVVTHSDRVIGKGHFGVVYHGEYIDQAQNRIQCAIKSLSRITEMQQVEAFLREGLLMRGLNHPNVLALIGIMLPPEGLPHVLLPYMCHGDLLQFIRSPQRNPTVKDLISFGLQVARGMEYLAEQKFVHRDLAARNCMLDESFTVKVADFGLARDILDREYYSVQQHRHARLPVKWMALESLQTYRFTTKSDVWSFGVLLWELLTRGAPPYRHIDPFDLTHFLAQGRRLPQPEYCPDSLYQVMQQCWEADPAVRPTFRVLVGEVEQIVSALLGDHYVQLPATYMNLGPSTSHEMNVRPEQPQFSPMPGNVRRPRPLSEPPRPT
UniProt P35590, sequence (whole entry, looked up): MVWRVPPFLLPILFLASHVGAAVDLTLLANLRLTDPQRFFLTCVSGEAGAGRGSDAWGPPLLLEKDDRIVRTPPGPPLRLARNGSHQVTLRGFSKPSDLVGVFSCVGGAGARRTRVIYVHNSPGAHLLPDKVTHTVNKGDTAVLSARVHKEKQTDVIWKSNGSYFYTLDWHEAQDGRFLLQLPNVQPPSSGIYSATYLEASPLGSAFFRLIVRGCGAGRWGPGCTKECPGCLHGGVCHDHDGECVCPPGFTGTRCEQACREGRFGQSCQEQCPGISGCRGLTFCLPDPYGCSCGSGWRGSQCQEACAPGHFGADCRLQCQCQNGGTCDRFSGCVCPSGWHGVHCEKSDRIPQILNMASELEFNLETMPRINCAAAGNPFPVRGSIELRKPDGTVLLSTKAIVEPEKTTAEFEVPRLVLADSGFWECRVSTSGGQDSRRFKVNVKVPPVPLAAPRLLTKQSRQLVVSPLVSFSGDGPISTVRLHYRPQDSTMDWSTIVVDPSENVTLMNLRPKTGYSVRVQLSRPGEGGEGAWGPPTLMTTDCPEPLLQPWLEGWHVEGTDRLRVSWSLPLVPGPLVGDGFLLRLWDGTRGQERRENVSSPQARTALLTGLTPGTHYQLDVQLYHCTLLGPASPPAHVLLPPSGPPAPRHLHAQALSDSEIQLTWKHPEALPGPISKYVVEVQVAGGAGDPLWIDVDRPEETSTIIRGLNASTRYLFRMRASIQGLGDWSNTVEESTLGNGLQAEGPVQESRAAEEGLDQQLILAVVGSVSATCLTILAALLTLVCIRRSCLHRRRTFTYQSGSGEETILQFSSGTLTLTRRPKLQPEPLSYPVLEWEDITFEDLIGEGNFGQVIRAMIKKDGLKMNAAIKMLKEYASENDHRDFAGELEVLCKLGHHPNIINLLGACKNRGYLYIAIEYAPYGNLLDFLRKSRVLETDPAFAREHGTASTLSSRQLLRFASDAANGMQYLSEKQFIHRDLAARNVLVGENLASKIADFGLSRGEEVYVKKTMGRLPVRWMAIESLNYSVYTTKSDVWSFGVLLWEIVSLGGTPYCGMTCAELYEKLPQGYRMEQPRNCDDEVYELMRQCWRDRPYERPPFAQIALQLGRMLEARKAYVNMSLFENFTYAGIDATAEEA
UniProt Q13164, sequence (whole entry, looked up): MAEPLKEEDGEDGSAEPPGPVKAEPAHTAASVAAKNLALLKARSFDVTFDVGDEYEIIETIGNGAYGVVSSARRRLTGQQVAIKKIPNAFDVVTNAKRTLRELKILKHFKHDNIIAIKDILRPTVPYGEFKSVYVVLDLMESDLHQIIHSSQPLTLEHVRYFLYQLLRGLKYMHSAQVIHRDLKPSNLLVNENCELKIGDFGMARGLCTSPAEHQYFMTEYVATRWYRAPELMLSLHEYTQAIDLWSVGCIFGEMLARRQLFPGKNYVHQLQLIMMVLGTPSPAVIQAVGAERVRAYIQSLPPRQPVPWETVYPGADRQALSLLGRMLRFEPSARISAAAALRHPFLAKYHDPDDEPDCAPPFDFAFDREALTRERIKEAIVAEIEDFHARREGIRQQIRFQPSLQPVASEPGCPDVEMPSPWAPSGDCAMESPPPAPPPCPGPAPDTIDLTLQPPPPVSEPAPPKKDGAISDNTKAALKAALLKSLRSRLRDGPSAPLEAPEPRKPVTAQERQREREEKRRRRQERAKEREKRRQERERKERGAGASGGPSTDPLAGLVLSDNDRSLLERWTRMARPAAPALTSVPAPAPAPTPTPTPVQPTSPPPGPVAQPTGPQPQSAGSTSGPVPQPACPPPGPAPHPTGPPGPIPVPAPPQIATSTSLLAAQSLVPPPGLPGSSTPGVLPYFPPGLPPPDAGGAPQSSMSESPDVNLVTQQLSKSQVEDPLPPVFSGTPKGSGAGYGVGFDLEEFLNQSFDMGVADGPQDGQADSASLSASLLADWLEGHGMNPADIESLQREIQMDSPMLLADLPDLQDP

Study 1
Species: human
Sample: microsomes or S9
Tested at: 2 µM
Time: 0.5 h
`O=C(CCCCCNc1ncccn1)Nc1nc[nH]n1` has a remaining compound of 97.8%.
The remaining compound of `C[C@H](Nc1ncnc2[nH]cnc12)c1cc2ccccc2nc1-c1ccccc1` is reported as 63.9%.
The remaining compound of `CCN(CCn1cccn1)Cc1[nH]nc(C)c1Cl` is reported as 57.4%.
The remaining compound of `CC1(C)Oc2c(ccnc2Cl)[C@H](N(Cc2ncc[nH]2)c2ccc(Cl)cc2Cl)[C@H]1O` is reported as 2.48%.
`CC1=C2C(=NC3=C(C(=O)CCC3)C2c2ccc(C#N)cc2)N(c2nc(C)cc(C)n2)N1` (stereo not shown) has a remaining compound of 63.1%.

Study 2
SMILES: O=C(NC1CCNCC1)c1[nH]ncc1NC(=O)c1c(Cl)cccc1Cl
Technique: trypan blue exclusion
Time: 48 h
Relative to: untreated
For HuT78; 0.05 µM: viability read 105%.
HH; 1 µM — viability: 13.6%.
HuT78; 0.01 µM — viability: 107%.
For HuT78; 0.1 µM: viability read 102%.
It gave 100% for viability (HH; 0.001 µM).
The viability was 48.3% (HuT78; 1 µM).

Study 3
SMILES: COc1ccc(-c2c(Nc3ccccn3)[nH]c3c(C4=CCCCC4)c(-c4ccccc4)nn3c2=O)cc1
Species: human
Sample: plasma
Route: oral
It gave 24 h for Tlast (LC-MS/MS; 50 mg once daily).
It gave 24 h for Tlast (200 mg twice daily).
For LC-MS/MS; 100 mg once daily: Tlast read 24 h.

Study 4
Compound: CCC(=N\O)/C(C)=C/c1ccc(F)cc1
Effect on: cell-free assay
Technique: competition with immobilised ligand
Tested at: 1 µM
The remaining binding was 100% (RET (Homo sapiens, UniProt P07949)).
MAPK7 (Homo sapiens, UniProt Q13164) — remaining binding: 88%.
For EGFR (Homo sapiens, UniProt P00533): remaining binding read 60%.
For MARK2 (Homo sapiens, UniProt Q7KZI7): remaining binding read 100%.
The remaining binding was 94% (NIM1K (Homo sapiens, UniProt Q8IY84)).
PIM3 (Homo sapiens, UniProt Q86V86) — remaining binding: 96%.
The remaining binding was 86% (RIOK2 (Homo sapiens, UniProt Q9BVS4)).
It gave 100% for remaining binding (CSK (Homo sapiens, UniProt P41240)).
It gave 100% for remaining binding (IRAK4 (Homo sapiens, UniProt Q9NWZ3)).
For MST1R (Homo sapiens, UniProt Q04912): remaining binding read 100%.
For EPHA3 (Homo sapiens, UniProt P29320): remaining binding read 100%.
It gave 77% for remaining binding (Tyrosine-protein kinase ABL1, phosphorylated (ABL1, Homo sapiens, UniProt P00519, F317I)).
For Tyrosine-protein kinase ABL1, non-phosphorylated (ABL1, Homo sapiens, UniProt P00519, Q252H): remaining binding read 90%.
NUAK2 (Homo sapiens, UniProt Q9H093) — remaining binding: 73%.
It gave 67% for remaining binding (EPHA6 (Homo sapiens, UniProt Q9UF33)).
For PRKAA2 (Homo sapiens, UniProt P54646): remaining binding read 88%.
The remaining binding was 87% (ROS1 (Homo sapiens, UniProt P08922)).
PRKCH (Homo sapiens, UniProt P24723) — remaining binding: 100%.
Tyrosine-protein kinase ABL1, phosphorylated (ABL1, Homo sapiens, UniProt P00519, T315I) — remaining binding: 87%.
TSSK3 (Homo sapiens, UniProt Q96PN8) — remaining binding: 99%.
It gave 94% for remaining binding (MAP2K3 (Homo sapiens, UniProt P46734)).
For CDK8 (Homo sapiens, UniProt P49336): remaining binding read 100%.
TIE1 (Homo sapiens, UniProt P35590) — remaining binding: 63%.
Tyrosine-protein kinase ABL1, phosphorylated (ABL1, Homo sapiens, UniProt P00519, F317L) — remaining binding: 81%.
PHKG2 (Homo sapiens, UniProt P15735) — remaining binding: 90%.

Study 5
Target: Serine/threonine-protein kinase N1 (PKN1, Homo sapiens, UniProt Q16512)
UniProt Q16512, sequence (whole entry, looked up): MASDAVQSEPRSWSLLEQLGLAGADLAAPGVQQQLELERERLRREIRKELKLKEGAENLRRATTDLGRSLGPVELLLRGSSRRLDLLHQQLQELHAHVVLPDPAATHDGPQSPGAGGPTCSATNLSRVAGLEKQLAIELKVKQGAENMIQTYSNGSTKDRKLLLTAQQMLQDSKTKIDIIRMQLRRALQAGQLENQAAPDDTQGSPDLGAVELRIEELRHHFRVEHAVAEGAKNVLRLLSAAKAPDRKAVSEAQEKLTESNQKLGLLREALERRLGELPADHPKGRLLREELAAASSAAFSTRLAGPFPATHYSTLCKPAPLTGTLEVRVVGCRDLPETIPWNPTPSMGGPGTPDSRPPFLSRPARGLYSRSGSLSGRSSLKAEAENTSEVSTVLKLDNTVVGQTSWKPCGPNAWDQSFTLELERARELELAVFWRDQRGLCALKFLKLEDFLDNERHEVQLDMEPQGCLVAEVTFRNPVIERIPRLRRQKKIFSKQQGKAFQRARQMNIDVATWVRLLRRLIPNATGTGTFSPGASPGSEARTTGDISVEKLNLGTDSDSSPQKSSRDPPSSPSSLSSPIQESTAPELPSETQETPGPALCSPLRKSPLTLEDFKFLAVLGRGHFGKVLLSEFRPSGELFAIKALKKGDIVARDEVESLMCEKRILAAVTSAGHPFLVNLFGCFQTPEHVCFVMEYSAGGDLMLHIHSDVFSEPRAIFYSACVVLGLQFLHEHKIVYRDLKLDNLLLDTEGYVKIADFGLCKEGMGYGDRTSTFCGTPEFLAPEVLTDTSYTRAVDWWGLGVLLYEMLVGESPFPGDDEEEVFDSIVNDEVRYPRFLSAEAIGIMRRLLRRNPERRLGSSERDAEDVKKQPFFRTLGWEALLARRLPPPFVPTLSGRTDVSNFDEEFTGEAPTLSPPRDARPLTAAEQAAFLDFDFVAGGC
Effect on: enzyme activity
Mode: inhibitor
Tested at: 0.5 µM
Relative to: control
`COc1ccc(OC)c2c(=S)c3ccccc3[nH]c12` has a remaining activity of 109%.
The remaining activity of `CNC(=O)c1cc(Oc2ccc(NC(=O)Nc3ccc(Cl)c(C(F)(F)F)c3)cc2)ccn1` is reported as 106%.
The remaining activity of `CCOC(=O)c1c(C)[nH]c(/C=C2\C(=O)Nc3ccccc32)c1C` is reported as 89.6%.
`OCC(O)CCON=C1C(c2c(O)[nH]c3ccccc23)=Nc2ccccc21` (stereo not shown) has a remaining activity of 49.9%.
`COc1cc2ncnc(Nc3ccc(Oc4ccccc4)cc3)c2cc1OC` has a remaining activity of 97.3%.
`O=C(Nc1cccc(Nc2cc(Nc3cccc(C(F)(F)F)c3)ncn2)c1)C1CC1` gave a remaining activity of 98.9%.
For `CN(C)c1ccc(C=C2C(=O)Nc3ccccc32)cc1`, the remaining activity was 98.4%.
For `Cc1nc(-c2ccccc2)c(-c2ccncc2)o1`, the remaining activity was 101%.
The remaining activity of `O=C1NC(=O)C(c2cn(CCCO)c3ncccc23)=C1c1cnccn1` is reported as 97.8%.
`O=C(O)c1ccc2c3c1cccc3c(=O)n1c3ccccc3nc21` gave a remaining activity of 99.5%.
With `CO[C@H]1C[C@@H]2CC[C@@H](C)[C@@](O)(O2)C(=O)C(=O)N2CCCC[C@H]2C(=O)O[C@H]([C@H](C)C[C@@H]2CC[C@@H](O)[C@H](OC)C2)CC(=O)[C@H](C)/C=C(\C)[C@@H](O)[C@@H](OC)C(=O)[C@H](C)C[C@H](C)/C=C/C=C/C=C/1C` the remaining activity was 96.2%.
The remaining activity of `Nc1ncnc2n[nH]c(Nc3ccc(F)cc3)c12` is reported as 102%.
For `Cn1c2ccccc2c2c3c(c4c5ccccc5n(CCC#N)c4c21)CNC3=O`, the remaining activity was 10.3%.

Some of these lines once more (study 4):
The remaining binding was 94% (NIM1K (Homo sapiens, UniProt Q8IY84)).
PIM3 (Homo sapiens, UniProt Q86V86) — remaining binding: 96%.
The remaining binding was 86% (RIOK2 (Homo sapiens, UniProt Q9BVS4)).
It gave 100% for remaining binding (CSK (Homo sapiens, UniProt P41240)).
It gave 100% for remaining binding (IRAK4 (Homo sapiens, UniProt Q9NWZ3)).
For MST1R (Homo sapiens, UniProt Q04912): remaining binding read 100%.
For EPHA3 (Homo sapiens, UniProt P29320): remaining binding read 100%.
It gave 77% for remaining binding (Tyrosine-protein kinase ABL1, phosphorylated (ABL1, Homo sapiens, UniProt P00519, F317I)).
For Tyrosine-protein kinase ABL1, non-phosphorylated (ABL1, Homo sapiens, UniProt P00519, Q252H): remaining binding read 90%.
